Results from different studies.
Numbered parts are unrelated; each lists some results of a single study. Substitutions count along the parent as printed.

Study 1 — method: RNA Bind-n-Seq; form: RNA; matrix: in vitro; tested at: 365 nM; reference: no-protein control; reading: higher = stronger binding
Target: RNA binding protein fox-1 homolog 2, RRM domain, GST-SBP tag (RBFOX2, Homo sapiens, UniProt O43251-10, residues 100-194)
Setting: natural RNA segment, single round, ends assumed
Target sequence (chain): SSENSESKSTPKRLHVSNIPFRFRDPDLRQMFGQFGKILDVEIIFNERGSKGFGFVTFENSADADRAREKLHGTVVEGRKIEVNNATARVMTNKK
Sequence | RBNS enrichment (R)
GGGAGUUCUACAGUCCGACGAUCGUGUGUUGGUGUGCUUCUGUGUGGCUGUCCCUGUUGCUAGCAGAUCACAGUGAUUUGGUCCCAUUGGAGCCUUUGGCCCCAGGGGCACUCACUUUUUCUCAUCAGAGUCUUGGAAUUCUCGGGUGCCAA | 0.357
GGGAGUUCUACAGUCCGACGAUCGACUCUGUUGCUGGUCUUCUCAGUUCAUUUCCUGAGGUGGAUUUACUGAGAGAAGGUGAAAUAAAGCCAUAUUUAGUAUACCAGAGAAGGUAGAUUUUAAGAAUGGUCUCUGGAAUUCUCGGGUGCCAA | 0.416
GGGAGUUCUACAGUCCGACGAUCCUGGUUAGGAAUCACAGCUGUAAAAUUGAUUUCAGUUCAUCACACUUCUUCAUGAUGUUGCCCCUAAAUUUUGCACACUAUAUUCUUGUAUAUUAUUUCAAAUAAAUGGAUGGAAUUCUCGGGUGCCAA | 0.51
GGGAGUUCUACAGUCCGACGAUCACGUUUCUACCAGUGUUUCAAUUUAAAGUGCUAGUGUUUAAAAACAUUUUCAAGGGAUAAGGCCUUCUGUACUUUGCUUAUUUGAAGAAUCAGUGGUAGGAGCAGUGAAGUGGAAUUCUCGGGUGCCAA | 0.588
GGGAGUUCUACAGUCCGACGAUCGUUUGUUAUCUCAUCUGGAACCUACACCAAGAGAUGCAGUCAGCAUCUUAAAGUAAAUGUUCAUGGAAGCUAAAAAAUUUACCUCCUUUCCUUUUCCCUUUCCCCUUAAAUGGAAUUCUCGGGUGCCAA | 0.658
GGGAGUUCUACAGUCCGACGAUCUUUUCAGAGGGGCUCUGAACAGAAUGAAAACCUAGUUCUUGCGUGUACUUUGAAGAAUGGAAUUGUAUUAGUCAGCCUGUUAAUGCCACUUCAGAGUUUGGGGUUUUGUCUGGAAUUCUCGGGUGCCAA | 9.19
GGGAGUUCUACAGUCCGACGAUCUGGAUACAAUAGGUUAAGGCCCAAGAUGUUUGAAAUGAAUGCAAUAUUAAUAGAUGCAUAUAUACAUGACAUAUUGUGGUUAAUUUUAAAACUACUGUGCCUUAACGUGUUGGAAUUCUCGGGUGCCAA | 0.571
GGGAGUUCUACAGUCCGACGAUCAUGUUGAAAAUUGUACUGAAAUAAAGUAGAAAAUUGUUACGUACCAUAUUUGUAACUAUCAACUUUUAAAACUUUUAACGUUUUUGUUACAUGCAUUGUAAUUCUGCUUUUGGAAUUCUCGGGUGCCAA | 0.394

Study 2 — method: RNAcompete; form: RNA; matrix: in vitro; tested at: 20 nM; setting: 7-mer, probes averaged, single round; reference: mean of 7-mers; reading: higher = stronger binding
Target: PABPC1L2, full length, GST fusion (mouse, UniProt A0ABA7IW68)
Target sequence (chain): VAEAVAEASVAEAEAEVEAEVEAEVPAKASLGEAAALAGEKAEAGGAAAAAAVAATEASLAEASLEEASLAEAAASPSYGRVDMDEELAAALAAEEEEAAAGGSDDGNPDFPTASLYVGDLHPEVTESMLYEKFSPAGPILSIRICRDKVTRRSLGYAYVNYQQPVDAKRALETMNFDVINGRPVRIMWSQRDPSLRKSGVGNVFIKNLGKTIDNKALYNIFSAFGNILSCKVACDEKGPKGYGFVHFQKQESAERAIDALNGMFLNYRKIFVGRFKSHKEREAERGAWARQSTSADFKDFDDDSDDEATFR
Sequence | 7-mer Z-score
CCAUUUC | -0.452
UACCUUC | -0.273
GUGGGGG | 0.606
AACUUCU | -0.117
GUUUGAU | -0.378
AACCCAU | 0.166
GCACUCU | -0.26
CGCGUCC | -0.3

Further values, each from its own experiment
FOXP2 N-truncated, polyQ removed: Forkhead box protein P2, N-truncated, polyQ removed (FOXP2, Homo sapiens, UniProt O15409, residues 214-715)
Chain of UniProt O15409 (214-715, unmodified, looked up): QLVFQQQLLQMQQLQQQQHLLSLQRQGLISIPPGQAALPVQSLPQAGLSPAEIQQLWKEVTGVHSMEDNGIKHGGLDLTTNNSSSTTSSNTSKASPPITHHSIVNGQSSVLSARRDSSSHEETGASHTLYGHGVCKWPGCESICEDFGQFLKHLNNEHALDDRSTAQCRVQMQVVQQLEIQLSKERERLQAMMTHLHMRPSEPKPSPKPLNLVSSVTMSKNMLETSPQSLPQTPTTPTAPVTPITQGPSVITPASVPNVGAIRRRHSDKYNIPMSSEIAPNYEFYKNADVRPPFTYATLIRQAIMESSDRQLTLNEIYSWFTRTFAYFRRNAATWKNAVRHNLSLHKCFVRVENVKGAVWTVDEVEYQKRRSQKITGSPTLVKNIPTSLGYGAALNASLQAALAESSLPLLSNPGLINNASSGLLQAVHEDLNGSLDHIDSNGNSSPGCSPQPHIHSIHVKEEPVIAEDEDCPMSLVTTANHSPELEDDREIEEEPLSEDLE
P1: PafA, mature enzyme, eGFP fusion (Elizabethkingia meningoseptica, UniProt Q9KJX5); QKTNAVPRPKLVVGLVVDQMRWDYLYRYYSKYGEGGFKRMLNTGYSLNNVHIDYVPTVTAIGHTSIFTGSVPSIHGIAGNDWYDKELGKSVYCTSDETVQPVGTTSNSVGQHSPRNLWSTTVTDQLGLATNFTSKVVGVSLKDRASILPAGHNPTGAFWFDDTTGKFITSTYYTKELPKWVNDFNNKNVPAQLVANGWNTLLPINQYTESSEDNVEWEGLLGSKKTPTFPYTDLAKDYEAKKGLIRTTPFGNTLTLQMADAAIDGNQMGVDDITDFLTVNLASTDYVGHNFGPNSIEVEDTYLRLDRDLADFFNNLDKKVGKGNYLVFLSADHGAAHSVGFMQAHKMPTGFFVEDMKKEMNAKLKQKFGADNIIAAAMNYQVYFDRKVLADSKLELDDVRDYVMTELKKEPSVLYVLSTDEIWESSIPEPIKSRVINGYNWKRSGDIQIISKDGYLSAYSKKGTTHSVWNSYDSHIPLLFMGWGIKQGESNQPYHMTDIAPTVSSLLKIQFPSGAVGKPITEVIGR
Substance | tested on | assay | test system | setting | scale | measurement | value
CGCCTGTTACGGCATCAGGGCTTTGGTTTGGGATGGCTGCTTGTTTACCAATTGTTCCGGCGGTATGAC | FOXP2 N-truncated, polyQ removed | MITOMI | double-stranded DNA, one strand shown, in vitro | not given, 69-bp whole dsDNA, apparent Ka, titration fit | reference: unmutated reference site, higher = stronger binding | relative association constant | 1 fold
CHCHD6 (Homo sapiens, UniProt Q9BRQ6) | CHCHD3 (Homo sapiens, UniProt Q9NX63) | cross-linking MS |  | hits only |  | interaction screen | cross-linked
P1 N116G | inorganic phosphate, free oxyanion | microfluidic competitive inhibition | in vitro, cell-free expressed | not given, derived from inhibition constants, unchanged parent 615000 nM | lower = stronger binding | phosphate dissociation constant | 578 µM
CGCCTGTTACGGCATCAGGGCTTTGGTTTGGGATGGCTGCTTGTTTCCCAATTGTTCCGGCGGTATGAC | FOXP2 N-truncated, polyQ removed | MITOMI | double-stranded DNA, one strand shown, in vitro | not given, 69-bp whole dsDNA, apparent Ka, titration fit | reference: unmutated reference site, higher = stronger binding | relative association constant | 0.0193 fold
